Experimental data gathered from unrelated publications.
Lines come from different studies, so protocols differ. ± marks the error that the study gave.

| Structure (SMILES) | species | matrix | route | dose | time | setting | tissue uptake [%ID/g] |
| --- | --- | --- | --- | --- | --- | --- | --- |
| N=C(N)NCCC[C@@H]1NC(=O)[C@H](CCCCNC(=O)CCOCCOCCOCCOCCNC(=O)CC[C@H](NC(=O)[C@H](CCCCNC(=O)c2ccc(NN)nc2)NC(=O)c2ccc(NN)nc2)C(=O)NCCOCCOCCOCCOCCC(=O)NCCCC[C@@H]2NC(=O)[C@@H](Cc3ccccc3)NC(=O)[C@H](CC(=O)O)NC(=O)CNC(=O)[C@H](CCCNC(=N)N)NC2=O)NC(=O)[C@@H](Cc2ccccc2)NC(=O)[C@H](CC(=O)O)NC(=O)CNC1=O [technetium-99m labelled] | female athymic nude mice | heart | intravenous | 0.1 MBq | 1 h | U-87 MG glioma xenograft | 1.28 ± 0.3 |
| N=C(N)NCCC[C@@H]1NC(=O)[C@H](CCCCNC(=O)CCOCCOCCOCCOCCNC(=O)CN2CCN(CC(=O)O)CCN(CC(=O)O)CCN(CC(=O)O)CC2)NC(=O)[C@@H](Cc2ccccc2)NC(=O)[C@H](CC(=O)O)NC(=O)CNC1=O [indium-111 labelled] | athymic nude mice, female, U-87 MG glioma xenograft | spleen | intravenous | 3 µCi | 4 h |  | 0.73 ± 0.16 |
| CSCC[C@H](NC(=O)[C@H](CC(C)C)NC(=O)[C@H](Cc1c[nH]cn1)NC(=O)CNC(=O)[C@@H](NC(=O)[C@H](C)NC(=O)[C@H](Cc1c[nH]c2ccccc12)NC(=O)[C@H](CCC(N)=O)NC(=O)CCCCCCCNC(=O)CCC(=O)Nc1ccc(CNC23CNCCNCC(N)(CNCCNC2)CNCCNC3)cc1)C(C)C)C(N)=O [copper-64 labelled] | female SCID mice, PC-3 xenograft | lung | intravenous | 0.6 MBq | 24 h |  | 0.367 ± 0.026 |
| N=C(N)NCCC[C@@H]1NC(=O)[C@H](CCCCNC(=O)CC[C@H](NC(=O)CCOCCOCCOCCOCCNC(=O)CN2CCN(CC(=O)O)CCN(CC(=O)O)CCN(CC(=O)O)CC2)C(=O)NCCCC[C@@H]2NC(=O)[C@@H](Cc3ccccc3)NC(=O)[C@H](CC(=O)O)NC(=O)CNC(=O)[C@H](CCCNC(=N)N)NC2=O)NC(=O)[C@@H](Cc2ccccc2)NC(=O)[C@H](CC(=O)O)NC(=O)CNC1=O [indium-111 labelled] | athymic nude mice, female, U-87 MG glioma xenograft | spleen | intravenous | 3 µCi | 72 h |  | 0.58 ± 0.09 |
| CC(C)C[C@H](NC(=O)[C@H](Cc1ccc(O)cc1)NC(=O)[C@@H](CCCNC(=N)N)NC(=O)[C@@H](CO)NC(=O)[C@H](Cc1ccccc1)NC(=O)[C@H](CC1CCCCC1)NC(=O)[C@H](CC(=O)O)NC(=O)CCC(C(=O)O)N1CCCN2CCN(CCCN(CC(=O)O)CC2)CC1)C(=O)N[C@@H](Cc1c[nH]c2ccccc12)C(=O)N[C@@H](CO)C(=O)O (stereo partly shown) [copper-64 labelled] | female NMRI nude mice | spleen |  |  | 22 h p.i. |  | 2.7 ± 0.3 |
| N=C(N)NCCC[C@@H]1NC(=O)[C@H](CCCCNC(=O)CCOCCOCCOCCOCCNC(=O)CC[C@H](NC(=O)CCOCCOCCOCCOCCNC(=O)CC[C@H](NC(=O)CN2CCN(CC(=O)O)CCN(CC(=O)O)CCN(CC(=O)O)CC2)C(=O)NCCOCCOCCOCCOCCC(=O)N[C@@H](CCC(=O)NCCOCCOCCOCCOCCC(=O)NCCCC[C@@H]2NC(=O)[C@@H](Cc3ccccc3)NC(=O)[C@H](CC(=O)O)NC(=O)CNC(=O)[C@H](CCCNC(=N)N)NC2=O)C(=O)NCCOCCOCCOCCOCCC(=O)NCCCC[C@@H]2NC(=O)[C@@H](Cc3ccccc3)NC(=O)[C@H](CC(=O)O)NC(=O)CNC(=O)[C@H](CCCNC(=N)N)NC2=O)C(=O)NCCOCCOCCOCCOCCC(=O)NCCCC[C@@H]2NC(=O)[C@@H](Cc3ccccc3)NC(=O)[C@H](CC(=O)O)NC(=O)CNC(=O)[C@H](CCCNC(=N)N)NC2=O)NC(=O)[C@@H](Cc2ccccc2)NC(=O)[C@H](CC(=O)O)NC(=O)CNC1=O [indium-111 labelled] | female athymic nude mice | blood | intravenous | 3 µCi | 1 h | U-87 MG glioma xenograft | 0.29 ± 0.14 |
| N=C(N)NCCC[C@@H]1NC(=O)[C@H](CCCCNC(=O)CCOCCOCCOCCOCCNC(=O)CC[C@H](NC(=O)CCOCCOCCOCCOCCNC(=O)[C@H](CCCCNC(=O)c2ccc(NN)nc2)NC(=O)c2ccc(NN)nc2)C(=O)NCCOCCOCCOCCOCCC(=O)NCCCC[C@@H]2NC(=O)[C@@H](Cc3ccccc3)NC(=O)[C@H](CC(=O)O)NC(=O)CNC(=O)[C@H](CCCNC(=N)N)NC2=O)NC(=O)[C@@H](Cc2ccccc2)NC(=O)[C@H](CC(=O)O)NC(=O)CNC1=O [technetium-99m labelled] | female athymic nude mice | heart | intravenous | 0.1 MBq | 1 h | U-87 MG glioma xenograft | 1.12 ± 0.18 |
| CSCC[C@H](NC(=O)[C@H](CC(C)C)NC(=O)[C@H](Cc1c[nH]cn1)NC(=O)CNC(=O)[C@@H](NC(=O)[C@H](C)NC(=O)[C@H](Cc1c[nH]c2ccccc12)NC(=O)[C@H](CCC(N)=O)NC(=O)CNC(=O)[C@H](CO)NC(=O)CNC(=O)CCCCCCCNC(=O)CCC(=O)Nc1ccc(CNC23CNCCNCC(N)(CNCCNC2)CNCCNC3)cc1)C(C)C)C(N)=O [copper-64 labelled] | female SCID mice, PC-3 xenograft | bone | intravenous | 0.6 MBq | 4 h |  | 0.533 ± 0.022 |
| N=C(N)NCCC[C@@H]1NC(=O)[C@H](CCCCNC(=O)CNC(=O)CNC(=O)CNC(=O)CC[C@H](NC(=O)CNC(=O)CNC(=O)CNC(=O)[C@H](CCCCNC(=O)c2ccc(NN)nc2)NC(=O)c2ccc(NN)nc2)C(=O)NCC(=O)NCC(=O)NCC(=O)NCCCC[C@@H]2NC(=O)[C@@H](Cc3ccccc3)NC(=O)[C@H](CC(=O)O)NC(=O)CNC(=O)[C@H](CCCNC(=N)N)NC2=O)NC(=O)[C@@H](Cc2ccccc2)NC(=O)[C@H](CC(=O)O)NC(=O)CNC1=O [technetium-99m labelled] | female athymic nude mice | heart | intravenous | 0.1 MBq | 1 h | U-87 MG glioma xenograft | 1.06 ± 0.22 |
| N=C(N)NCCC[C@H](NC(=O)[C@H](CCCCN)NC(=O)[C@H](CCC(N)=O)NC(=O)CCOCCOCCOCCNC(=O)CN1CCN(CC(=O)O)CCN(CC(=O)O)CCN(CC(=O)O)CC1)C(=O)N[C@@H](CCCCN)C(=O)N[C@@H](CCCNC(=N)N)C(=O)N[C@@H](CCCCN)C(=O)N[C@@H](CCCCN)C(=O)N[C@@H](CO)C(=O)N[C@@H](CCCNC(=N)N)C(=O)N[C@@H](Cc1ccc(O)cc1)C(=O)N[C@@H](CCCCN)C(=O)N[C@@H](CO)C(=O)O [copper-64 labelled] | male C57BL/6 mice, B16-F10 tumour | blood | intravenous |  | 60 min |  | 0.88 ± 0.12 |

Excerpt of the above:
| Structure (SMILES) | species | matrix | route | dose | time | setting | tissue uptake [%ID/g] |
| --- | --- | --- | --- | --- | --- | --- | --- |
| N=C(N)NCCC[C@@H]1NC(=O)[C@H](CCCCNC(=O)CCOCCOCCOCCOCCNC(=O)CC[C@H](NC(=O)CCOCCOCCOCCOCCNC(=O)CC[C@H](NC(=O)CN2CCN(CC(=O)O)CCN(CC(=O)O)CCN(CC(=O)O)CC2)C(=O)NCCOCCOCCOCCOCCC(=O)N[C@@H](CCC(=O)NCCOCCOCCOCCOCCC(=O)NCCCC[C@@H]2NC(=O)[C@@H](Cc3ccccc3)NC(=O)[C@H](CC(=O)O)NC(=O)CNC(=O)[C@H](CCCNC(=N)N)NC2=O)C(=O)NCCOCCOCCOCCOCCC(=O)NCCCC[C@@H]2NC(=O)[C@@H](Cc3ccccc3)NC(=O)[C@H](CC(=O)O)NC(=O)CNC(=O)[C@H](CCCNC(=N)N)NC2=O)C(=O)NCCOCCOCCOCCOCCC(=O)NCCCC[C@@H]2NC(=O)[C@@H](Cc3ccccc3)NC(=O)[C@H](CC(=O)O)NC(=O)CNC(=O)[C@H](CCCNC(=N)N)NC2=O)NC(=O)[C@@H](Cc2ccccc2)NC(=O)[C@H](CC(=O)O)NC(=O)CNC1=O [indium-111 labelled] | female athymic nude mice | blood | intravenous | 3 µCi | 1 h | U-87 MG glioma xenograft | 0.29 ± 0.14 |
